Published values collected from several papers.
Observed: microbial growth

O=C1C(Br)=C(Br)C(=O)c2ccccc21
MIC (Pichia kudriavzevii; broth dilution; ATCC34135; 24 h): < 1.56 µg/mL

Cc1[nH]c(C(=O)Nc2ccc(C(=O)NCc3n[nH]c(=O)o3)cc2N2CCN(C(=O)OC(C)(C)C)CC2)c(Cl)c1Cl
MIC (Acinetobacter baumannii; broth dilution; ATCC19606): > 32 µg/mL

CC1(C)S[C@@H]2[C@H](NC(=O)[C@H](N)c3ccccc3)C(=O)N2[C@H]1C(=O)O
MIC (Vibrio alginolyticus; 24 h): > 40 µM

COC1=CC(=O)c2ccccc2C1=O
MIC (Pichia kudriavzevii; broth dilution; ATCC34135; 24 h): 12.5 µg/mL

Clc1ccc(Nc2cc3nc4ccccc4n(-c4ccc(Cl)cc4)c-3c/c2=N\OCc2ccccc2)cc1
MIC (Mycobacterium avium; ATCC700898): 3.75 µM

CC(C)(C)OC(=O)N1CCN(c2cc(C(=O)NCC(=O)O)ccc2NC(=O)c2cc(Br)c(Br)[nH]2)CC1
MIC (Acinetobacter baumannii; broth dilution; ATCC19606): > 32 µg/mL

CN[C@H](CC(C)C)C(=O)N[C@H]1C(=O)N[C@@H](CC(N)=O)C(=O)N[C@H]2C(=O)N[C@H]3C(=O)N[C@H](C(=O)N[C@H](C(=O)O)c4cc(O)cc(O)c4-c4cc3ccc4O)[C@H](O)c3ccc(c(Cl)c3)Oc3cc2cc(c3O[C@@H]2O[C@H](CO)[C@@H](O)[C@H](O)[C@H]2O[C@H]2C[C@](C)(N)[C@H](O)[C@H](C)O2)Oc2ccc(cc2Cl)[C@H]1O
MIC (Streptococcus pyogenes; broth dilution; ATCC19615): 0.24 µg/mL

C=CCO/N=c1\cc2n(-c3ccc(Cl)cc3)c3ccccc3nc-2cc1Nc1ccc(Cl)cc1
MIC (Mycobacterium avium; ATCC700898): 0.94 µM

CN[C@H](CC(C)C)C(=O)N[C@H]1C(=O)N[C@@H](CC(N)=O)C(=O)N[C@H]2C(=O)N[C@H]3C(=O)N[C@H](C(=O)N[C@H](C(=O)O)c4cc(O)cc(O)c4-c4cc3ccc4O)[C@H](O)c3ccc(c(Cl)c3)Oc3cc2cc(c3O[C@@H]2O[C@H](CO)[C@@H](O)[C@H](O)[C@H]2O[C@H]2C[C@](C)(N)[C@H](O)[C@H](C)O2)Oc2ccc(cc2Cl)[C@H]1O
MIC (Staphylococcus epidermidis; ATCC14990): 6.67 µM

CN[C@H](CC(C)C)C(=O)N[C@H]1C(=O)N[C@@H](CC(N)=O)C(=O)N[C@H]2C(=O)N[C@H]3C(=O)N[C@H](C(=O)N[C@H](C(=O)O)c4cc(O)cc(O)c4-c4cc3ccc4O)[C@H](O)c3ccc(c(Cl)c3)Oc3cc2cc(c3O[C@@H]2O[C@H](CO)[C@@H](O)[C@H](O)[C@H]2O[C@H]2C[C@](C)(N)[C@H](O)[C@H](C)O2)Oc2ccc(cc2Cl)[C@H]1O
MIC (Enterococcus faecalis; broth dilution; NCTC12697): 2 µM

Cc1[nH]c(C(=O)Nc2ccc(C(=O)NCC(=O)O)cc2N2CC[C@@H](NC(=O)OC(C)(C)C)C2)c(Cl)c1Cl
MIC (Acinetobacter baumannii; broth dilution; ATCC19606): > 32 µg/mL

CNC(C)C1CCC(N)C(OC2C(N)CC(N)C(OC3OCC(C)(O)C(NC)C3O)C2O)O1 (centres unmarked)
MIC (Escherichia coli; ATCC25922): 0.78 µM

O=C1O[C@H]2[C@@H]3OC(=O)c4cc(O)c(O)c(O)c4-c4c(O)c(O)c5oc(=O)c6c(c(O)c(O)c7oc(=O)c4c5c76)-c4c(cc(O)c(O)c4O)C(=O)OC[C@H]3OC(O)[C@@H]2OC(=O)c2cc(O)c(O)c(O)c2-c2c1cc(O)c(O)c2O (mixture of isomers)
MIC (Streptococcus mutans; broth dilution; 24 h): 100 µg/mL

O=C(O)CN1C(=O)/C(=C/c2ccc(-c3ccc(N(c4ccccc4)c4ccccc4)cc3)cc2)NC1=S
MIC (Staphylococcus epidermidis; broth dilution; ATCC12228): 1.95 µg/mL

Cl.N[C@@H]1CCN(c2cc(C(=O)NCC(=O)O)ccc2NC(=O)c2cc(Br)c(Br)[nH]2)C1
MIC (Acinetobacter baumannii; broth dilution; ATCC19606): > 32 µg/mL

O=C(CO/N=c1\cc2n(-c3ccc(Cl)cc3)c3ccccc3nc-2cc1Nc1ccc(Cl)cc1)NCc1ccc2c(c1)CCO2
MIC (Mycobacterium avium; clinical isolate): > 30 µM

C=C/C=C(\C)CC[C@@H]1C[C@H](O)CC(=O)O1
MIC (Salmonella enterica; ATCC14028 TYPHIMURIUM): 128 µg/mL

OC(Cn1cncn1)(Cn1cncn1)c1ccc(F)cc1F
MIC (Clavispora lusitaniae; broth dilution; MY1396): 1 µg/mL

Cc1[nH]c(C(=O)Nc2ccc(C(=O)NCC(=O)O)cc2N2CC[C@@H](N)C2)c(Cl)c1Cl.Cl
MIC (Acinetobacter baumannii; broth dilution; ATCC19606): > 32 µg/mL

CN(Cc1ccc(C2(C(F)(F)F)CC2)cc1)Cc1cccc2ccccc12.Cl
MIC (Trichophyton mentagrophytes; broth dilution; ATCC18748; 72 h): 2000 µg/mL

CC(=O)NC[C@H]1CN(c2ccc(N3CCOCC3)c(F)c2)C(=O)O1
MIC (Streptococcus pneumoniae; PRSP): 1 µg/mL

Cc1[nH]c(C(=O)Nc2ccc(C(=O)NCC(=O)O)cc2N2CCN(C(=O)OC(C)(C)C)CC2)c(Cl)c1Cl
MIC (Acinetobacter baumannii; broth dilution; ATCC19606): > 32 µg/mL

C[C@H](NC(=O)CO/N=c1\cc2n(-c3ccc(Cl)cc3)c3ccccc3nc-2cc1Nc1ccc(Cl)cc1)C(=O)O
MIC (Mycobacterium avium; ATCC700898): 1.88 µM

A few entries again:
OC(Cn1cncn1)(Cn1cncn1)c1ccc(F)cc1F
MIC (Clavispora lusitaniae; broth dilution; MY1396): 1 µg/mL

Cc1[nH]c(C(=O)Nc2ccc(C(=O)NCC(=O)O)cc2N2CC[C@@H](N)C2)c(Cl)c1Cl.Cl
MIC (Acinetobacter baumannii; broth dilution; ATCC19606): > 32 µg/mL

CN(Cc1ccc(C2(C(F)(F)F)CC2)cc1)Cc1cccc2ccccc12.Cl
MIC (Trichophyton mentagrophytes; broth dilution; ATCC18748; 72 h): 2000 µg/mL
